Results pooled from the literature.
Protocols differ between the studies behind these lines.

Structure (SMILES) | assay | system | conditions | measurement | result
O=C(Nc1nc2cccc(-c3ccc(CN4CCS(=O)(=O)CC4)cc3)n2n1)C1CC1 | item: angina pectoris | rheumatoid arthritis patients | oral, 200 mg once daily, 4 weeks, any relatedness | patients with adverse event | 0%
Cc1cc(NC2CCN(C(=O)OC3CCN(C(=O)/C=C/CN(C)C)C3)CC2)n2ncc(C(C)C)c2n1 (stereo not drawn) | Phase I dose escalation CTCAE v4.0, item: Dyspepsia | patients with advanced solid tumours | dose not given, TIW dosing any grade | patients with adverse event | 0%
CCO[C@H]1CCN(Cc2c(OC)cc(C)c3[nH]ccc23)[C@H](c2ccc(C(=O)O)cc2)C1 | item: Dyspepsia | PNH patients, active haemolysis | oral, 200 mg twice daily, extension phase | patients with adverse event | 0%
COc1cc(Nc2ncc3c(n2)-c2ccc(Cl)cc2C(c2c(F)cccc2OC)=NC3)ccc1C(=O)O | item: Sepsis, all grades | cancer patients, phase 1/2 | oral, dose not given, with: pembrolizumab | patients with adverse event | 4%
C[C@@H](Nc1cc(F)cc(F)c1)c1cc(C(=O)N(C)C)cc2c(=O)cc(N3CCOCC3)oc12 | CTCAE v4, item: AST increased | patients with advanced solid tumours | oral, dose not given, phase I dose expansion | patients discontinuing for AE | 0%
C=CC(=O)Nc1cc(Nc2nccc(-c3cn(C)c4ccccc34)n2)c(OC)cc1N(C)CCN(C)C | item: Pain grade ≥3 | EGFR-mutant MET-altered NSCLC | oral, dose not given, study | patients with treatment-related AEs | 0%
CNC(=O)c1ccc(-c2cnc3ncc(Cc4ccc5ncccc5c4)n3n2)cc1F | item: Nausea, all grades | cancer patients | oral, 600 mg twice daily, expansion cohort, any causality | patients with adverse event | 42%
CCOc1c([C@H](C)n2nc(C)c3c(N)ncnc32)cc(Cl)c(F)c1[C@@H]1CNC(=O)C1 | item: QRS >100 to ≤110 ms | previously treated B-cell malignancy | oral, 20 mg once daily, baseline below thresholds | patients | 7.1%
C=CC(=O)NC1CCN(c2ncc3ncnc(Nc4ccc(Oc5ccc6c(c5)ncn6C)c(C)c4)c3n2)CC1 |  | male patients | oral, dose not given, on-treatment adverse events | patients with Fatigue | 6%

A few entries again:
Structure (SMILES) | assay | system | conditions | measurement | result
C[C@@H](Nc1cc(F)cc(F)c1)c1cc(C(=O)N(C)C)cc2c(=O)cc(N3CCOCC3)oc12 | CTCAE v4, item: AST increased | patients with advanced solid tumours | oral, dose not given, phase I dose expansion | patients discontinuing for AE | 0%
